Measurements of several laboratories.
Parts stem from different laboratories: compare values within a part only. Substitutions count along the parent as printed.

Sample 1
Target: RING finger protein unkempt homolog, zinc fingers 1-6, GST-SBP tag (UNK, Homo sapiens, UniProt Q9C0B0, residues 30-357)
UniProt Q9C0B0, sequence (30-357, looked up): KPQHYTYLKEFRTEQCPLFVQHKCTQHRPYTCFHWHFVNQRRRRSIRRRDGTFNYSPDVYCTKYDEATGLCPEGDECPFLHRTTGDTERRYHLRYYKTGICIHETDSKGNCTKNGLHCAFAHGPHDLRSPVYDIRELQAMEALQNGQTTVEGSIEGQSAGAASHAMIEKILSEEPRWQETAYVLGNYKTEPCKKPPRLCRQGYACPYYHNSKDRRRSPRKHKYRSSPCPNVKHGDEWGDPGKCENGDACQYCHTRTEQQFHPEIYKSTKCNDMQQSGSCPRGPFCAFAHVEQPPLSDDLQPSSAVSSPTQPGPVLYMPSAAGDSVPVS
Technique: RNA Bind-n-Seq
Molecule type: RNA
Sample: in vitro
Tested at: not given
Notes: RNA with constant flanks, human and mouse sites, ends assumed
Baseline: input RNA pool
Reading: higher = stronger binding
| Sequence | bound/input enrichment [ratio] |
| --- | --- |
| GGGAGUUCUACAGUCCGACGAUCUCACAAGCACAAAUCUUUCCCACUAGCCAUUUAAUAAGUUAAAAAAAGAUACACAAACCUACUAGUCUUGAACAAACUGUCAUACGUAUGGGACCUACACUUAAUCUCUAUGCUUUACACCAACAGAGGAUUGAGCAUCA | 28 |
| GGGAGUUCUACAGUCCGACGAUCCCCCCACACCCAGGAAUGGGCCCUCCACAGAGCCCCAUGGACCAGCACAGCCAAGGUUAUAUGUCACCACAUCCGUCUCCUCUGGGAGCCCCGGAGCACGUCUCUAGCCCUAUAUCUGGACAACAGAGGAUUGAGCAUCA | 0.305 |
| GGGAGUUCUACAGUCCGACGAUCAAAGAGGCAAAACCUGAUGAAUUAAUGGAUUCCAAAUUGAGAUGCGUAUUUGAAAUGCCCAAUGAAAAUGAUAAAUUGAAUGAUAUGGAACCUAGCAAAGCUGUUCCACUGAAUGCAUCUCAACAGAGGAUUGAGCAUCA | 0.187 |
| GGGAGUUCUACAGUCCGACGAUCGCGGAGAAAAAAAAUUACUUAUUUUCUUGCCCCAUACAUACCUUGAGGCGAGCAAAAAAAUUAAAUUUUAACCAUGAGGGAAAUCGUGCACAUCCAGGCUGGUCAGUGUGGCAACCAGAUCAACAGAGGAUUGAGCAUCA | 0.303 |
| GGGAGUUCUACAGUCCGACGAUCCAUCUUAAAUUUUUGCUGGAAGUGGAGUCAUGAGACUAAAGAUAUCUCUUUUAAAAGAACCAAAGCAUAUCCUUUUAAUGCUUAUAAAUCUUAUUGGAUUUUCUUAAUUAUAGUAUUGUUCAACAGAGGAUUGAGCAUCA | 7.1 |
| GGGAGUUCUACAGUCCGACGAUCGGAGACAAGUGCACUAAAUCUUUACCUUAUGAACCUUACAAGGCCCUCCAUGGGCCUCUGCCUCUUUGUCUUCUUAAAGGUAAGAGGGCUCACUCCAAAUCUCUGGACUACCUCAAUCUACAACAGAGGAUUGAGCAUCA | 0.18 |
| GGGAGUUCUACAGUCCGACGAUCGAAAUGUUAGCACACAGAGCAGUGCUAGCUUGCUGCAGUCCCUAUUUAUUUGAAAUCUUUAAUAGUGAUAGUGAUCCUCAUGGAAUUUCUCACGUUAAAUUUGAUGAUCUCAAUCCAGAACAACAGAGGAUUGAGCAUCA | 1.75 |
| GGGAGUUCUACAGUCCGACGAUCCUGCAGCUAACGUCUCCCACUGACUACUCCAUUUUUGAUAACUAUUACAUCCCUGAAAUCACUAGUGUUUUGCUGUUGCGAUCCUGUAAGACUUUAACCCAUGAGAUCGGACACAUACUUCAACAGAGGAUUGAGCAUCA | 0.645 |

Sample 2
Target: PABPC1L2, full length, GST fusion (mouse, UniProt A0ABA7IW68)
Technique: RNAcompete
Molecule type: RNA
Sample: in vitro
Tested at: 20 nM
Notes: 7-mer, probes averaged, single round
Baseline: mean of 7-mers
Reading: higher = stronger binding
Construct (chain): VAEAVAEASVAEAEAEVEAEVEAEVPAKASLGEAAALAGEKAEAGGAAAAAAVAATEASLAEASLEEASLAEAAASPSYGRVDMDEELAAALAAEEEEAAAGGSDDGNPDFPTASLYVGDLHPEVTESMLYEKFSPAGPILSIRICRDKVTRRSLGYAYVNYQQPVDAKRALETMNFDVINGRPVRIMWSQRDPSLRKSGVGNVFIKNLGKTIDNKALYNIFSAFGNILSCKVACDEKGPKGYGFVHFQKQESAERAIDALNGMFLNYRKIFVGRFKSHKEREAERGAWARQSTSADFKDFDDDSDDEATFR
| Sequence | 7-mer Z-score |
| --- | --- |
| GAACCUA | -0.0881 |
| AAAUGGU | 0.838 |
| UAGGCUC | -0.0573 |
| AGAGAGU | -0.249 |
| GAACAAU | 0.207 |
| ACGAUCG | -0.119 |

Sample 3
Target: CCND1, cyclin fold, Cln2 fusion (human)
Technique: yeast growth competition, sequencing
Sample: yeast
Notes: weak parent motif
Baseline: not given
Reading: higher = stronger binding
Starting sequence: CDC25A docking peptide (human); PPHRRRLLFACSP
| Substitution | normalised enrichment score |
| --- | --- |
| L7T | 0.333 |
| S12Q | -0.386 |
| P1S | 0.473 |

Single results of other studies
| Molecule | target | test | test system | setting | scale | measurement | value |
| --- | --- | --- | --- | --- | --- | --- | --- |
| PhoQ, residues 284 288 289 292 302 303 GASLAW | PhoP, residues 12 14 15 18 19 NHFIF (Escherichia coli, UniProt P23836) | Sort-seq, refers to: YFP reporter | E. coli | PhoQ-PhoP variant library, added: 10 µM Mg2+ | baseline: high Mg2+ state, higher = stronger signaling | fold induction | 9.34 |

Some of these lines once more (sample 1):
| Sequence | bound/input enrichment [ratio] |
| --- | --- |
| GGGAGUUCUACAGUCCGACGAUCGCGGAGAAAAAAAAUUACUUAUUUUCUUGCCCCAUACAUACCUUGAGGCGAGCAAAAAAAUUAAAUUUUAACCAUGAGGGAAAUCGUGCACAUCCAGGCUGGUCAGUGUGGCAACCAGAUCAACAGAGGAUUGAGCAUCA | 0.303 |
| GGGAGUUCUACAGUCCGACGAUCGGAGACAAGUGCACUAAAUCUUUACCUUAUGAACCUUACAAGGCCCUCCAUGGGCCUCUGCCUCUUUGUCUUCUUAAAGGUAAGAGGGCUCACUCCAAAUCUCUGGACUACCUCAAUCUACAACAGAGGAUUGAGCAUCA | 0.18 |
